Measured values from different studies.
Each line is one published result; not all experiments were run side by side. Numbers after ± are the reported error.

CC[C@H](C)[C@H](N)C(=O)NCC(=O)N[C@@H](CC(N)=O)C(=O)N[C@@H](Cc1ccc(O)cc1)C(=O)N[C@H](C(=O)N[C@H](C(=O)N[C@@H](CO)C(=O)N[C@@H](CS)C(=O)N[C@@H](CC(C)C)C(=O)N1CCC[C@H]1C(=O)N[C@@H](Cc1ccccc1)C(=O)N[C@H](C(=O)N[C@H](C(=O)N[C@@H](CC(N)=O)C(=O)N[C@@H](CS)C(=O)O)[C@@H](C)CC)[C@@H](C)O)C(C)C)[C@@H](C)O
responding donors (human PBMC CD4 T cells; AIM): 45%

Cn1cc(CN2CCCC(COc3ccccc3C(=O)N3CCCCC3)C2)c2ccccc21 (stereo not shown)
maximum response (SARS-CoV-2; cytopathic effect; USA_WA1/2020; round 1, 5-point): 83.3%

CC1=C(C(=O)OCCc2ccccc2)C(c2ccccc2[N+](=O)[O-])C2=C(CCCC2=O)N1 (stereo not shown)
EC50 (HEK293T; pseudovirus entry; SARS-CoV spike pseudotyped HIV-1; 72 h): > 50 µM

COc1cc(Nc2c(C#N)cnc3cc(OCCCN4CCN(C)CC4)c(OC)cc23)c(Cl)cc1Cl
EC90 (Huh-7; pseudovirus entry; MERS-CoV spike pseudovirus): 2.44 ± 1.38 µM

CNC(=O)[C@@H](NC(=O)[C@H](CC(C)C)[C@H](O)C(=O)NO)C(C)(C)C
viability difference (C2C12; 1 µM, added: MH venom; baseline: venom alone): -0.671%

COc1ccc(CCNC(=O)c2sc3nc(-c4cccs4)ccc3c2N)cc1OC
EC50 (ScN2a-cl3; PrPSc level): > 10 µM

CC(C)C[C@H](NC(=O)CNC(=O)[C@H](Cc1ccccc1)NC(=O)[C@H](CO)NC(=O)[C@H](CC(N)=O)NC(=O)[C@H](Cc1c[nH]c2ccccc12)NC(=O)[C@H](CC(N)=O)NC(=O)[C@@H](N)Cc1ccc(O)cc1)C(=O)N[C@@H](CCCNC(=N)N)C(=O)N[C@@H](Cc1ccc(O)cc1)C(N)=O
EC50 (GnRH neurons; depolarization, agonist; room temperature, added: TTX 1 µM): 0.00332 ± 2e-05 µM

Cn1cnc(Cn2c(=O)[nH]/c(=N\c3cc4cn(C)nc4cc3Cl)n(Cc3cc(F)c(F)cc3F)c2=O)n1
treatment-related TEAE, Moderate severity (human, mild renal impairment; oral, 375 mg): 0%

CC(C)C[C@H]1[C@@H](c2ccccc2)OC(=O)N1CCCN1CCCCCC1
IC50 (HeLa; Ebola VLP entry): 19.3 µM

Nc1ncnc2c([C@@H]3N[C@H](CO)[C@@H](O)[C@H]3O)c[nH]c12
inhibition (Zaire ebolavirus; viral replication, inhibitor; human Macrophage; 3.1 µM): 0%

OCCN1CCN(CCC=C2c3ccccc3Sc3ccc(C(F)(F)F)cc32)CC1
EC50 (Huh-7; pseudovirus entry; MERS-CoV spike pseudovirus): 1.68 ± 0.22 µM

CC[C@H](C)[C@H](NC(=O)[C@H](CC(C)C)NC(=O)[C@H](Cc1c[nH]c2ccccc12)NC(=O)[C@H](CCC(N)=O)NC(=O)[C@@H](NC(=O)[C@H](Cc1ccccc1)NC(=O)[C@H](C)NC(=O)[C@H](CCCCNC(=O)COCCOCCNC(=O)COCCOCCNC(=O)CC[C@H](NC(=O)CCCCCCCCCCCCCCCCCCC(=O)O)C(=O)O)NC(=O)[C@H](CCC(N)=O)NC(=O)[C@H](C)NC(=O)[C@@H](NC(=O)[C@H](CCCCN)NC(=O)[C@H](CC(=O)O)NC(=O)[C@H](CC(C)C)NC(=O)C(C)(C)NC(=O)[C@@H](NC(=O)[C@H](CO)NC(=O)[C@H](Cc1ccc(O)cc1)NC(=O)[C@H](CC(=O)O)NC(=O)[C@H](CO)NC(=O)[C@@H](NC(=O)[C@H](Cc1ccccc1)NC(=O)[C@@H](NC(=O)CNC(=O)[C@H](CCC(=O)O)NC(=O)C(C)(C)NC(=O)[C@@H](N)Cc1ccc(O)cc1)[C@@H](C)O)[C@@H](C)O)[C@@H](C)CC)[C@@H](C)CC)C(C)C)C(=O)N[C@@H](C)C(=O)NCC(=O)NCC(=O)N1CCC[C@H]1C(=O)N[C@@H](CO)C(=O)N[C@@H](CO)C(=O)NCC(=O)N[C@@H](C)C(=O)N1CCC[C@H]1C(=O)N1CCC[C@H]1C(=O)N1CCC[C@H]1C(=O)N[C@@H](CO)C(N)=O
treatment-emergent ADA positive subjects (healthy subjects, single ascending dose; 0.5 mg, postbaseline): 0%

CCc1c(C(=O)C(N)=O)c2c(OCC(=O)O)cccc2n1Cc1ccccc1
viability difference (C2C12; 10 µM, added: TN venom; baseline: venom alone): 23.1%

CCCCc1oc2ccccc2c1C(=O)c1cc(I)c(OCCN(CC)CC)c(I)c1
EC90 (Huh-7; pseudovirus entry; MERS-CoV spike pseudovirus): > 20 µM

C[C@@H](C1=C(CCN(C)C)Cc2ccccc21)c1ccccn1
IC50 (HeLa; Ebola VLP entry): 15.3 µM

C[C@@H]1Cc2c(Cl)cc(C(=O)N[C@H](Cc3ccccc3)C(=O)O)c(O)c2C(=O)O1
relative concentration equal effect (SL-29 chicken embryo fibroblasts; metabolic activity, MTT; concentration not given, 48 h; baseline: compound over ochratoxin A): 27 fold

CSc1ccc2c(c1)C(N1CCN(C)CC1)Cc1ccccc1S2 (stereo not shown)
IC50 (HeLa; Ebola VLP entry): 8.63 µM

CC(C)(C)[C@H](NC(=O)C(F)(F)F)C(=O)N1C[C@H]2[C@@H]([C@H]1C(=O)N[C@H](C#N)C[C@@H]1CCNC1=O)C2(C)C
participants with adverse events (human, fasted; oral, 500 mg single dose, 28 days, no ritonavir): 1%

CN1CCCN(C(c2ccccc2)c2ccc(Cl)cc2)CC1.Cl.Cl (stereo not shown)
maximal inhibition (HeLa; Ebola VLP entry): 95%

CC(=O)c1ccc(NC(=O)c2sc3nc(-c4cccs4)ccc3c2N)cc1
EC50 (ScN2a-cl3; PrPSc level): 0.1 ± 0.02 µM

CCCCSCCCNC(=O)C1CCN(Cc2nc(-c3ccc(CC)cc3)oc2C)CC1
maximal response (SARS-CoV-2; cytopathic effect, cell-based CPE; USA_WA1/2020; round 2, 5-point dilution): 89.8%

CC[C@H](OC(C)=O)C(C[C@H](C)NC)(c1ccccc1)c1ccccc1
IC50 (HeLa; Ebola VLP entry): 7.96 µM

CC(CN(C)C)CN1c2ccccc2Sc2ccccc21 (stereo not shown)
EC90 (Huh-7; pseudovirus entry; MERS-CoV spike pseudovirus): 3.78 ± 1.54 µM

CN(C)c1ccc(C(=C2C=CC(=[N+](C)C)C=C2)c2ccccc2)cc1.CN(C)c1ccc(C(=C2C=CC(=[N+](C)C)C=C2)c2ccccc2)cc1.O=C(O)C(=O)O.O=C([O-])C(=O)O.O=C([O-])C(=O)O
maximal inhibition (HeLa; Ebola VLP entry): 95%

CN(C)CCOc1ccc(/C(=C(/CCCl)c2ccccc2)c2ccccc2)cc1
EC50 (Huh-7; pseudovirus entry; MERS-CoV spike pseudovirus): 3.49 ± 0.44 µM

A few entries again:
CN(C)CCOc1ccc(/C(=C(/CCCl)c2ccccc2)c2ccccc2)cc1
EC50 (Huh-7; pseudovirus entry; MERS-CoV spike pseudovirus): 3.49 ± 0.44 µM

Nc1ncnc2c([C@@H]3N[C@H](CO)[C@@H](O)[C@H]3O)c[nH]c12
inhibition (Zaire ebolavirus; viral replication, inhibitor; human Macrophage; 3.1 µM): 0%

C[C@@H]1Cc2c(Cl)cc(C(=O)N[C@H](Cc3ccccc3)C(=O)O)c(O)c2C(=O)O1
relative concentration equal effect (SL-29 chicken embryo fibroblasts; metabolic activity, MTT; concentration not given, 48 h; baseline: compound over ochratoxin A): 27 fold

CC(C)C[C@H](NC(=O)CNC(=O)[C@H](Cc1ccccc1)NC(=O)[C@H](CO)NC(=O)[C@H](CC(N)=O)NC(=O)[C@H](Cc1c[nH]c2ccccc12)NC(=O)[C@H](CC(N)=O)NC(=O)[C@@H](N)Cc1ccc(O)cc1)C(=O)N[C@@H](CCCNC(=N)N)C(=O)N[C@@H](Cc1ccc(O)cc1)C(N)=O
EC50 (GnRH neurons; depolarization, agonist; room temperature, added: TTX 1 µM): 0.00332 ± 2e-05 µM
